Results collected from several papers.
Lines come from different studies, so protocols differ.
Target: Tyrosine-protein phosphatase non-receptor type 1 (PTPN1, Homo sapiens, UniProt P18031)
One construct used (P18031 1-435): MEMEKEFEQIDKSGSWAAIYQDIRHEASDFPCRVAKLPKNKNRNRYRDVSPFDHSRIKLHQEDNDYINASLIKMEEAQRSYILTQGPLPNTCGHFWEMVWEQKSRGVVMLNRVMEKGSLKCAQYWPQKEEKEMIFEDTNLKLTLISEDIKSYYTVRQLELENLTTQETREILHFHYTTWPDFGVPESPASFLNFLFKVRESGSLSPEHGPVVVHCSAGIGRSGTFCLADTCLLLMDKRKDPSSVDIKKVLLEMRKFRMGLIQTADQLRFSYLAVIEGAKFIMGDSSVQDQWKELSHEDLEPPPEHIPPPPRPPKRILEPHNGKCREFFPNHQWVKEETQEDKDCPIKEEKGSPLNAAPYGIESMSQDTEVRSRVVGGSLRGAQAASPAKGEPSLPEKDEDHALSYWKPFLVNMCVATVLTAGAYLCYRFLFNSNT

Structure (SMILES) = CC1(C)C=Cc2c(cc(O)c3c(=O)cc(-c4ccc(O)cc4O)oc23)O1; method = Lineweaver-Burk secondary plots; setting = free enzyme; quantity = Ki; result = 0.5 µM
Structure (SMILES) = CC(C)=CCCC(C)=CCCC(C)=CCc1c(O)cc(O)c(CC=C(C)C)c1-c1cc2ccc(O)cc2o1; effect on = enzyme activity; mode = inhibitor; quantity = Ki; result = 7.09 µM
Structure (SMILES) = CC1CCC2C(C(=O)O)=COC(OC3OC(CO)C(O)C(O)C3O)C12 (stereo not shown); effect on = enzyme activity; mode = inhibitor; method = absorbance; quantity = IC50; result = > 100 µM
Structure (SMILES) = COc1cc(O)cc(C=Cc2ccc(O)cc2)c1CC=C(C)CCC=C(C)C; effect on = enzyme activity; mode = inhibitor; quantity = Ki; result = 5.37 µM
Structure (SMILES) = O=C1C=C(CCc2ccc(OC3OC(CO)C(O)C(O)C3O)cc2)CCC1 (stereo not shown); effect on = enzyme activity; mode = inhibitor; method = absorbance; quantity = IC50; result = > 100 µM
Structure (SMILES) = CC(C)(O)CC(=O)CC(C(=O)O)C1CC[C@]2(C)C1CCC1[C@@]3(C)CC[C@H](O)C(C)(C)C3CC[C@]12C (stereo partly shown); effect on = enzyme activity; mode = inhibitor; method = absorbance; quantity = Ki; result = 3.46 µM
Structure (SMILES) = C[C@@H]1O[C@@H](O[C@H]2C(=O)c3c(O)cc(O)cc3O[C@@H]2c2ccc(O)cc2)[C@H](O)[C@H](O)[C@H]1O; method = Lineweaver-Burk secondary plots; setting = free enzyme; quantity = Ki; result = 1.2 µM
Structure (SMILES) = COC(=O)C1=COC(OC2OC(CO)C(O)C(O)C2O)C2C1CC(O)C2C (stereo not shown); effect on = enzyme activity; mode = inhibitor; method = absorbance; quantity = IC50; result = > 100 µM
Structure (SMILES) = COc1cc(O)c(CC=C(C)C)c2c1C(=O)[C@H](O)[C@@H](c1ccccc1)O2; effect on = enzyme activity; mode = inhibitor; quantity = Ki; result = 8.08 µM
Structure (SMILES) = COc1cc(O)cc(-c2cc3ccc(O)cc3o2)c1CC=C(C)CCC=C(C)CCC=C(C)C; effect on = enzyme activity; mode = inhibitor; quantity = Ki; result = 6.3 µM

Repeated from above:
Structure (SMILES) = COc1cc(O)cc(-c2cc3ccc(O)cc3o2)c1CC=C(C)CCC=C(C)CCC=C(C)C; effect on = enzyme activity; mode = inhibitor; quantity = Ki; result = 6.3 µM
